Assay results pooled from the literature.
Numbers after ± are the reported error.

O[C@H]1CCCN[C@@H]1CCCn1cnc2c(Cl)c(Cl)ccc21
Cmax geometric LS mean (healthy CYP2D6 EM and UM, plasma; oral, 150 mg): 217 ng/mL

COC[C@]12CN(C)[C@@H]3[C@@H]4[C@H](OC)[C@H]1[C@@]3([C@@H](OC)C[C@H]2O)[C@@H]1C[C@@]2(O)[C@H](OC(=O)c3ccccc3)[C@@H]1[C@]4(OC(C)=O)[C@@H](O)[C@@H]2OC
MRT(0-t) (Sprague-Dawley rat, plasma; oral, dose not given, with H in PCW extract): 2.7 ± 1.07 h

Cn1cncc1-c1c(F)cncc1NC(=O)c1c(N)nn2cc(F)cnc12
grade ≥3 white blood cells decreased (human patients; oral, up to 40 mg once daily): 0%

COc1cc2c(Oc3ccc4[nH]c(C)cc4c3F)ccnc2cc1OCC1(N)CC1
Vomiting incidence (paediatric recurrent refractory sarcoma; 12 mg): 18.2%

CN(N=O)C(N)=O
water solubility (room temperature): 1.4 % w/v

CC[C@H](C)[C@H](NC(=O)[C@H](Cc1ccccc1)NC(=O)[C@H](CCC(=O)O)NC(=O)[C@H](CCCNC(=N)N)NC(=O)[C@H](C)NC(=O)[C@H](C)NC(=O)[C@H](CCC(N)=O)NC(=O)[C@H](CCC(=O)O)NC(=O)[C@H](CCC(=O)O)NC(=O)[C@H](CC(C)C)NC(=O)[C@H](Cc1ccc(O)cc1)NC(=O)[C@H](CO)NC(=O)[C@H](CO)NC(=O)[C@@H](NC(=O)[C@H](CC(=O)O)NC(=O)[C@H](CO)NC(=O)[C@@H](NC(=O)[C@H](Cc1ccccc1)NC(=O)[C@@H](NC(=O)CNC(=O)[C@H](CCC(=O)O)NC(=O)[C@H](C)NC(=O)CCc1cnc[nH]1)[C@@H](C)O)[C@@H](C)O)C(C)C)C(=O)N[C@@H](C)C(=O)N[C@@H](Cc1c[nH]c2ccccc12)C(=O)N[C@@H](CC(C)C)C(=O)N[C@H](C(=O)N[C@@H](CCCNC(=N)N)C(=O)NCC(=O)N[C@@H](CCCNC(=N)N)C(=O)N[C@@H](CCCCNC(=O)COCCOCCNC(=O)COCCOCCNC(=O)CC[C@H](NC(=O)CCCCCCCCCCCCCCCCC(=O)O)C(=O)O)C(=O)NCC(=O)NCC(=O)N[C@@H](CO)C(=O)N[C@@H](CCCCNC(=O)[C@H](CCCCNc1c(NCCCCCN(O)C(=O)CCC(=O)NCCCCCN(O)C(=O)CCC(=O)NCCCCCN(O)C(C)=O)c(=O)c1=O)Nc1c(NCCCCCN(O)C(=O)CCC(=O)NCCCCCN(O)C(=O)CCC(=O)NCCCCCN(O)C(C)=O)c(=O)c1=O)C(=O)O)C(C)C [zirconium-89 labelled]
tissue uptake (ex vivo gamma counting; male Sprague-Dawley rats, lung; intravenous, 1 nmol, 24 h): 0.659 %ID/g

C[C@@H]1OC(=O)NN=C1c1ccc(-c2ccc(F)cc2)c(C(F)(F)F)c1
patients with adverse event (phase I trial, refers to: Presyncope all grades; human patients; dose not given, all dose groups): 20%

CC[C@H](C)[C@H](N)C(=O)N[C@@H](CCCNC(=N)N)C(=O)N[C@H](C(=O)N[C@@H](Cc1c[nH]c2ccccc12)C(=O)N[C@@H](Cc1ccccc1)C(=O)N[C@H](C(=O)N[C@@H](CCCCN)C(=O)N[C@H](C(=O)N[C@@H](CCCNC(=N)N)C(=O)N[C@@H](CCCCN)C(=O)N[C@@H](Cc1c[nH]c2ccccc12)C(=O)N[C@@H](CCCCN)C(=O)N[C@@H](C)C(=O)N[C@H](C(=O)N[C@@H](Cc1ccc(O)cc1)C(=O)N[C@@H](Cc1c[nH]cn1)C(=O)N[C@H](C(N)=O)[C@@H](C)O)[C@@H](C)CC)C(C)C)[C@@H](C)CC)C(C)C
elution acetonitrile content (reversed-phase UPLC; C18 column, TFA): 43.1%

O=C(O)CCS(=O)(=O)O
plasma concentration (human; oral, 265 mg twice daily, 8 h post-dose, week 65): 362 ng/mL

C[C@]1(O)C[C@@](N)(c2ccc(-c3nc4n(c3-c3ccccc3)COc3ccncc3-4)cc2)C1
patients with grade ≥3 Dyspnea TEAE (human, advanced or metastatic solid tumours; once daily, dose escalation total): 11.1%

COc1ccc(C[C@@H]2NC(=O)[C@H]([C@@H](C)O)NC(=O)[C@@H]3[C@@H]4CCN3C(=O)[C@@H]3Cc5cn(c6ccc(F)cc56)CCCCCCN(Cc5ccc(cc5)CCNC(=O)[C@]5(C)CCCN5C2=O)C(=O)CCC(=O)N[C@@H](C)C(=O)N[C@H](CNC(=O)CCCCC[N+](C)(C)C)C(=O)N[C@@H](Cc2cccc(c2)CNC(=O)CO4)C(=O)N3)cc1
participants with adverse event (refers to: medical device site reaction; human; dose not given): 0%

CO[C@H]1C[C@@H]2CC[C@@H](C)[C@@](O)(O2)C(=O)C(=O)N2CCCC[C@H]2C(=O)O[C@H]([C@H](C)C[C@@H]2CC[C@@H](OC(=O)NCCOCCOCCOCCOCCOCCOCCOCCOCCC(=O)N3CCc4cc(Cn5nc(-c6ccc7oc(N)nc7c6)c6c(N)ncnc65)ccc4C3)[C@H](OC)C2)C[C@@H](O)[C@H](C)/C=C(\C)[C@@H](O)[C@@H](OC)C(=O)[C@H](C)C[C@H](C)/C=C/C=C/C=C/1C
any TEAE incidence (phase 1 dose escalation; advanced solid tumour patients; intravenous, 12 mg weekly, grade ≥3): 66.7%

CC1(C)[C@H](C(=O)O[C@H](C#N)c2cccc(Oc3ccccc3)c2)[C@@H]1C=C(Br)Br
enzyme contribution to clearance (refers to: CYP3A4; human, age 5 years, recombinant human CYP3A4; 0.1 µM): 0.73%

COc1cc2c(cc1OC)CN(CCc1ccc(NC(=O)c3cccc4c(=O)c5cccc(OC)c5[nH]c34)cc1)CC2
half-life (CD-1 mouse, male, lung; intraperitoneal, 10 mg/kg): 9.52 h

A few entries again:
COc1cc2c(Oc3ccc4[nH]c(C)cc4c3F)ccnc2cc1OCC1(N)CC1
Vomiting incidence (paediatric recurrent refractory sarcoma; 12 mg): 18.2%
